Assay results collected from several papers.
Lines come from different studies, so protocols differ. Values joined by “and” are separate records of one study, mostly repeats; a detail may differ. ± marks the error that the study gave.

C=CCn1c(=O)c2cnc(Nc3ccc(N4CCN(C)CC4)cc3)nc2n1-c1ccc2c(n1)[C@@](O)(CC)CC2 — tumour volume (NOD/SCID mouse, A-427 xenograft; oral, 80 mg/kg, 5 d on 2 d off ×4, day 29; relative to: vehicle): 115%
CN(C(=O)n1cnc(-c2ccc[n+]([O-])c2)c1)C1CCCCC1 — AUC(0-t) (refers to: PEA; human, plasma; 5 mg single dose): 355 ng·h/mL
CC(C)C[C@H](NC(=O)[C@@H](Cc1c[nH]c2ccccc12)NC(=O)[C@H](Cc1ccc(O)cc1)NC(=O)[C@H](CO)NC(=O)[C@H](Cc1c[nH]c2ccccc12)NC(=O)[C@H](Cc1c[nH]cn1)NC(=O)[C@@H]1CCC(=O)N1)C(=O)N[C@@H](CCCNC(=N)N)C(=O)N1CCC[C@H]1C(=O)NCC(N)=O — boys at genital stage (Chinese boys, central precocious puberty; intramuscular, 22.5 mg day 1, month 6, month 6, unchanged Tanner stage III; relative to: screening): 50%
CC(C)[C@H](C(=O)Nc1ccc(C(=O)NO)cc1)c1ccccc1 — tumour volume change (volumetric MRI; human, left schwannoma; dose not given, day 64; relative to: baseline): -8.69%
CCCN(O)N=Nc1ccc(S(=O)(=O)Nc2cc(C)on2)cc1 — paw edema volume (carrageenan-induced paw edema; Wistar rat; oral, 100 mg/kg, 4 h after carrageenan, with: carrageenan 1% subplantar; higher = more edema): 4.25 ± 0.46 a.u.
COc1ccc(-c2cncc(N[C@@H](C)c3cccc(NC(=O)c4cncc(C)c4)c3)n2)cc1OC — fold change (refers to: rno-miR-193-3p; rat SU5416/hypoxia model, lung; dose not given; relative to: SU5416/hypoxia vehicle): 1
O=C(O)c1cc(-c2ccc(-c3cc[nH]n3)cc2)c2ccc(-c3ccc(C(F)(F)F)cc3)cc2c1 — paw withdrawal threshold (von Frey; ICR mouse, male, CCI model; dose not given, contralateral paw): no effect
Cc1cccc(N(O)N=Nc2ccc(S(=O)(=O)Nc3cc(C)on3)cc2)c1 — paw edema volume (carrageenan-induced paw edema; Wistar rat; oral, 100 mg/kg, 2 h after carrageenan, with: carrageenan 1% subplantar; higher = more edema): 5.32 ± 0.48 a.u.
NC(=O)c1cnc2[nH]ccc2c1N[C@@H]1[C@@H]2CC3C[C@H]1C[C@@](O)(C3)C2 — change from baseline (flow cytometry, refers to: regulatory T cells; Japanese healthy subjects, peripheral blood; oral, 10 mg twice daily, day 7): -1.2%
N#Cc1ccn2c(-c3ccncc3)c(-c3ccc(F)cc3)nc2c1 — log2 fold change (kinase binding, competitor, MIB/MS competition, refers to: MCK1; Candida albicans cell lysate; 1 µM; relative to: DMSO): 0.165
Oc1ccc(N=Nc2ccc(-c3nc4ccccc4s3)cc2)c(O)c1 — TEAC (ABTS radical scavenging; unit not given; relative to: Trolox): > 2
CSCCNc1nc(SCCC(F)(F)F)nc2c1ncn2[C@@H]1O[C@H](COP(=O)(O)OP(=O)(O)C(Cl)(Cl)P(=O)(O)O)[C@@H](O)[C@H]1O — patients with high reactivity (ADP-induced platelet aggregation, Multiplate, AUC >46 U; human patients, whole blood; dose not given, 1 h): 11.4%
O=C(OC(C(F)(F)F)C(F)(F)F)N1CCN(Cc2cccc(Oc3ccccc3)c2)CC1 — tracer distribution volume (PET; rhesus monkey, cerebellum; intravenous, 0.01 mg/kg, pretreatment, with: [18F]T-401): 6.77 mL/cm3
CC#CC(=O)N[C@H]1CCCN(c2c(F)cc(C(N)=O)c3[nH]c(C)c(C)c23)C1 — serum immunoglobulin (refers to: IgG; human; 3 mg once daily, day 21; relative to: baseline): -3.8 % change
O=C1c2ccncc2C(=O)c2c1[nH]c1ccccc21 — RV free wall thickness (female monocrotaline PAH rat; dose not given; relative to: vehicle): decreased
c1ccc(-c2n[nH]cc2-c2ccnc3ccccc23)nc1 — log2 fold change (kinase binding, competitor, MIB/MS competition, refers to: HSL1; Candida albicans cell lysate; 100 nM; relative to: DMSO): 1.16
C[C@H](Oc1ccc(Br)cc1-c1ccon1)C(=O)O — difference from placebo (response peak; human, tibialis anterior muscle; 1200 mg, 30 Hz+30 s): 3.44%
COc1c(C)cnc(Cn2cc(C#CCCOP(=O)(O)O)c3c(Cl)nc(N)nc32)c1C — stable disease duration (RECIST; patients, advanced solid tumours; dose not given, prolonged, range): 6 to 19 months
Cc1noc(C)c1-c1cc(C(O)(c2ccccn2)c2ccccn2)c2nc(C3CC3)[nH]c2c1 — maximum induction (refers to: HEXIM1 expression; human, peripheral blood; 3 mg, day 1, 1604 study): 16%
Cc1cc(C)c(CNC(=O)c2cc(Cl)c3c(c2C)O[C@@](C)([C@H]2CC[C@H](N(C)C)CC2)O3)c(=O)[nH]1 — stable disease as best response (IWG criteria; relapsed/refractory PTCL-NOS patients; dose not given): 12%
COc1nc(NCc2cn(-c3ccc(NC(=O)c4ccc(C(F)(F)F)cc4)cc3)nn2)nc(OC)n1 — IC50 (cell viability, MTT; normal colonocytes, rat; 72 h): 72.5 ± 4.54 nM
Cc1noc(NS(=O)(=O)c2ccc(N=NN(C)O)cc2)c1C — paw edema volume (carrageenan-induced paw edema; Wistar rat; oral, 100 mg/kg, 1 h after carrageenan, with: carrageenan 1% subplantar; higher = more edema): 5.6 ± 0.43 a.u.
N#Cc1ccc2c(-c3ccncc3)c(-c3ccc(F)cc3)nn2c1 — log2 fold change (kinase binding, competitor, MIB/MS competition, refers to: YCK2; Candida albicans cell lysate; 1 µM; relative to: DMSO): -3.21
NC/C(=C\F)COc1cccc(Cn2c(=S)[nH]c(=O)c3[nH]cnc32)c1 — total white blood cell count (mouse, carrageenan air pouch, air pouch exudate; 30 mg/kg, 12 h): 9e+06 and 1.4e+07 and 2e+07 and 1.8e+07 and 6.8e+07 and 1.7e+07
COc1cc(Nc2ncc3c(n2)-c2ccc(Cl)cc2C(c2c(F)cccc2OC)=NC3)ccc1C(=O)O — relative tumour volume T/C (mouse, OS-1 osteosarcoma xenograft; oral, 2.6 mg/kg, day 21; relative to: vehicle): 2.09
Cc1cn(-c2ccc3n(c2=O)CCN([C@@H](C)[C@@H]2CC[C@H](c4cc(F)c(Cl)cc4C(F)(F)F)O2)C3=O)cn1 — CSF Aβ42 change (human, CSF; 360 mg once daily, 14 days, multiple dose, single LP; relative to: placebo): -64.8%
Cc1n[nH]c2ccc(-c3cc(OC[C@@H](N)Cc4ccccc4)cnc3-c3ccoc3)cc12 — log2 fold change (kinase binding, competitor, MIB/MS competition, refers to: YAK1; Candida albicans cell lysate; 100 nM; relative to: DMSO): -0.229
CC1(C)CCC(c2ccc(Cl)cc2)=C(CN2CCN(c3ccc(C(=O)NS(=O)(=O)c4ccc(N[C@H](CCN5CCOCC5)CSc5ccccc5)c(S(=O)(=O)C(F)(F)F)c4)cc3)CC2)C1 — EC50 (cell kill, PI exclusion flow cytometry; normal CD3+ T lymphocytes, human, peripheral blood; 24 h): 236 nM
C[C@@H](NC(=O)N1C(=O)[C@H](Cc2ccnc(N)c2)[C@H]1C(=O)O)C1CCCCC1 — time to aPTT Emax (human; iv infusion, 1.0 mg/kg/h, 24 h): 24 h
CCO[C@H]1CCN(Cc2c(OC)cc(C)c3[nH]ccc23)[C@H](c2ccc(C(=O)O)cc2)C1 — C3d-positive type III RBCs (PNH patients, blood; oral, 25 mg then 100 mg, week 8, mean absolute change; relative to: baseline): -1.3%
OC(CCN1CCCCC1)(c1ccccc1)C1CC2C=CC1C2 (stereo not shown) — change in EEG Beta1-power Pz-O2 (resting-state EEG; healthy elderly humans; oral, 2 mg, eyes closed, LS mean; relative to: baseline): -12.7%
CC(C)NCC(O)c1ccc(O)c(O)c1 (stereo not shown) — sarcomere length (ventricular cardiomyocytes, C57BL/6 mouse; dose not given, 0.844 s): 1.5 µm
Cc1cc(F)cc2c(CCC(=O)N[C@@H]3C(=O)NC[C@H]3O)c(-c3ccc(F)cc3)[nH]c12 — UACR AUC days 6-14 (mice, APOL1 G2, single copy; oral, 30 mg/kg twice daily, dosing from day 6, with: IFNγ plasmid injection): 4660 µg·days/mg and 7660 µg·days/mg and 6850 µg·days/mg and 40600 µg·days/mg and 6380 µg·days/mg and 21400 µg·days/mg
CC(C)(C)c1sc2ncnc(Oc3c(F)cccc3OC(F)(F)F)c2c1-c1ccc(Cl)cc1 — time to maximum effect (heat hyperalgesia; humanized MrgprX1 mice, CCI; oral, dose not given): 2 h
C[C@H]1C[C@H]2CSC(N)=N[C@@]2(c2nc(NC(=O)c3ccc(OC(F)F)cn3)cs2)CO1 — percent change from baseline (refers to: Aβx-40; healthy adults, plasma; 40 mg single dose, 24 h post-dose; relative to: placebo): -46.6%
COc1cc2cc(-c3ccc(CC(=O)Nc4cc(C(C)(C)C(F)(F)F)no4)cn3)cnc2cc1OC — best overall response CR (RECIST v1.1; human RET-altered solid tumours; 75 mg, phase I pooled): 0%
COc1ccccc1[C@H](Cn1c(=O)n(C(C)(C)C(=O)O)c(=O)c2c(C)c(-c3ncco3)sc21)OC1CCOCC1 — serum adiponectin (human; 20 mg, post-treatment): 5.69 ± 3.13 µg/mL
O=C1Nc2cc3[nH]nc(-c4ccncc4)c3cc2CN1Cc1ccccc1 — progressive disease, best response (RECIST v1.1; human, relapsed or refractory advanced solid tumours; intravenous, 1.8 mg/kg, pooled schedules): 100%
NCC(=O)Nc1cncc(-c2nn3c(=O)cc(N4CCNCC4)nc3s2)c1 — inhibition of platelet aggregation (ADP-induced platelet aggregation, light transmission aggregometry; stable CAD patients on aspirin; subcutaneous, 0.04 mg/kg, 180 min post-dose, with: ADP 20 µM): 3%
O=C(O)CNC(=O)Cc1ccccc1 — sarcomere length (ventricular cardiomyocytes, C57BL/6 mouse; dose not given, 0.02 s): 1.72 µm
CCN(O)N=Nc1ccc(S(=O)(=O)Nc2onc(C)c2C)cc1 — paw edema volume (carrageenan-induced paw edema; Wistar rat; oral, 100 mg/kg, 2 h after carrageenan, with: carrageenan 1% subplantar; higher = more edema): 6.11 ± 0.84 a.u.
COc1cc(F)c([C@@H]2CNC(=O)[C@H]2NC(=O)Nc2ccccc2)c(F)c1 — left ventricular end-diastolic volume (terminal haemodynamics; rat, permanent coronary occlusion MI; 1 mg/kg, 1008 h, 6 weeks post-MI): 300 ± 82 µL
N#Cc1ccc2c(c1)[C@H]1CCCN(C(=O)c3ccc4[nH]cnc4c3)[C@H]1C2 — androstenedione level (human clinical trial, male; oral, 240 mg once daily, at last treatment): 8.35 nmol/L
COc1ncnn2ccc(-c3cnc4nc(C)n(Cc5nnc([C@@H](C)F)o5)c4c3)c12 — marrow complete response as best response (Homo sapiens, relapsed or refractory AML or MDS; dose not given, splicing factor mutation-negative): 0%
Cc1ccc(N(O)N=Nc2ccc(S(=O)(=O)Nc3onc(C)c3C)cc2)cc1 — paw edema volume (carrageenan-induced paw edema; Wistar rat; oral, 100 mg/kg, 0 h (baseline), with: carrageenan 1% subplantar; higher = more edema): 3.41 ± 0.71 a.u.
C[C@@H](O)CCOC(=O)C[C@@H](C)O — plasma glucagon (human; oral drink, dose not given, 180 min post dose, median, all participants): 19 pM
Cc1cccc(N(O)N=Nc2ccc(S(=O)(=O)Nc3nccs3)cc2)c1 — paw edema volume (carrageenan-induced paw edema; Wistar rat; oral, 100 mg/kg, 4 h after carrageenan, with: carrageenan 1% subplantar; higher = more edema): 4.51 ± 0.64 a.u.
Cc1ccc(NC(=O)c2ccnc(C(F)(F)F)c2)cc1-c1cc(OCCO)nc(N2CCOCC2)c1 — stable disease (MAPK-altered advanced solid tumour patients; dose not given, single-agent dose escalation): 34.5%
Cc1cc(NS(=O)(=O)c2ccc(N=NN(C)O)cc2)no1 — paw edema volume (carrageenan-induced paw edema; Wistar rat; oral, 100 mg/kg, 0 h (baseline), with: carrageenan 1% subplantar; higher = more edema): 3.49 ± 0.56 a.u.
COc1nc(NCc2cn(-c3ccc(C(=O)Nc4ccc(C(F)(F)F)cc4)cc3)nn2)nc(OC)n1 — IC50 (cell viability, MTT; normal colonocytes, rat; 72 h): 76.7 ± 3.02 nM
Cc1cc(NS(=O)(=O)c2ccc(N=NN(O)c3ccccc3)cc2)no1 — paw edema volume (carrageenan-induced paw edema; Wistar rat; oral, 100 mg/kg, 1 h after carrageenan, with: carrageenan 1% subplantar; higher = more edema): 6.09 ± 0.74 a.u.
Cc1cnc(Nc2ccc(OCCOc3ccc(/N=N/c4ccc(C(=O)NCCC(=O)O)cc4)cc3C(=O)O)cc2)nc1Nc1cccc(S(=O)(=O)NC(C)(C)C)c1 — colon length difference (mice, DSS-induced colitis; 10 mg/kg, day 5, unit not given; relative to: DSS alone): -12.8

A few entries again:
Cc1cc(F)cc2c(CCC(=O)N[C@@H]3C(=O)NC[C@H]3O)c(-c3ccc(F)cc3)[nH]c12 — UACR AUC days 6-14 (mice, APOL1 G2, single copy; oral, 30 mg/kg twice daily, dosing from day 6, with: IFNγ plasmid injection): 4660 µg·days/mg and 7660 µg·days/mg and 6850 µg·days/mg and 40600 µg·days/mg and 6380 µg·days/mg and 21400 µg·days/mg
CC(C)(C)c1sc2ncnc(Oc3c(F)cccc3OC(F)(F)F)c2c1-c1ccc(Cl)cc1 — time to maximum effect (heat hyperalgesia; humanized MrgprX1 mice, CCI; oral, dose not given): 2 h
C[C@H]1C[C@H]2CSC(N)=N[C@@]2(c2nc(NC(=O)c3ccc(OC(F)F)cn3)cs2)CO1 — percent change from baseline (refers to: Aβx-40; healthy adults, plasma; 40 mg single dose, 24 h post-dose; relative to: placebo): -46.6%
COc1cc2cc(-c3ccc(CC(=O)Nc4cc(C(C)(C)C(F)(F)F)no4)cn3)cnc2cc1OC — best overall response CR (RECIST v1.1; human RET-altered solid tumours; 75 mg, phase I pooled): 0%
COc1ccccc1[C@H](Cn1c(=O)n(C(C)(C)C(=O)O)c(=O)c2c(C)c(-c3ncco3)sc21)OC1CCOCC1 — serum adiponectin (human; 20 mg, post-treatment): 5.69 ± 3.13 µg/mL
O=C1Nc2cc3[nH]nc(-c4ccncc4)c3cc2CN1Cc1ccccc1 — progressive disease, best response (RECIST v1.1; human, relapsed or refractory advanced solid tumours; intravenous, 1.8 mg/kg, pooled schedules): 100%
NCC(=O)Nc1cncc(-c2nn3c(=O)cc(N4CCNCC4)nc3s2)c1 — inhibition of platelet aggregation (ADP-induced platelet aggregation, light transmission aggregometry; stable CAD patients on aspirin; subcutaneous, 0.04 mg/kg, 180 min post-dose, with: ADP 20 µM): 3%
O=C(O)CNC(=O)Cc1ccccc1 — sarcomere length (ventricular cardiomyocytes, C57BL/6 mouse; dose not given, 0.02 s): 1.72 µm
CCN(O)N=Nc1ccc(S(=O)(=O)Nc2onc(C)c2C)cc1 — paw edema volume (carrageenan-induced paw edema; Wistar rat; oral, 100 mg/kg, 2 h after carrageenan, with: carrageenan 1% subplantar; higher = more edema): 6.11 ± 0.84 a.u.
